# Results collected from several papers.
# Each line is one published result; not all experiments were run side by side. “And” joins repeats or separate records; there may be more than shown.
# UniProt P29322, sequence (whole entry, looked up): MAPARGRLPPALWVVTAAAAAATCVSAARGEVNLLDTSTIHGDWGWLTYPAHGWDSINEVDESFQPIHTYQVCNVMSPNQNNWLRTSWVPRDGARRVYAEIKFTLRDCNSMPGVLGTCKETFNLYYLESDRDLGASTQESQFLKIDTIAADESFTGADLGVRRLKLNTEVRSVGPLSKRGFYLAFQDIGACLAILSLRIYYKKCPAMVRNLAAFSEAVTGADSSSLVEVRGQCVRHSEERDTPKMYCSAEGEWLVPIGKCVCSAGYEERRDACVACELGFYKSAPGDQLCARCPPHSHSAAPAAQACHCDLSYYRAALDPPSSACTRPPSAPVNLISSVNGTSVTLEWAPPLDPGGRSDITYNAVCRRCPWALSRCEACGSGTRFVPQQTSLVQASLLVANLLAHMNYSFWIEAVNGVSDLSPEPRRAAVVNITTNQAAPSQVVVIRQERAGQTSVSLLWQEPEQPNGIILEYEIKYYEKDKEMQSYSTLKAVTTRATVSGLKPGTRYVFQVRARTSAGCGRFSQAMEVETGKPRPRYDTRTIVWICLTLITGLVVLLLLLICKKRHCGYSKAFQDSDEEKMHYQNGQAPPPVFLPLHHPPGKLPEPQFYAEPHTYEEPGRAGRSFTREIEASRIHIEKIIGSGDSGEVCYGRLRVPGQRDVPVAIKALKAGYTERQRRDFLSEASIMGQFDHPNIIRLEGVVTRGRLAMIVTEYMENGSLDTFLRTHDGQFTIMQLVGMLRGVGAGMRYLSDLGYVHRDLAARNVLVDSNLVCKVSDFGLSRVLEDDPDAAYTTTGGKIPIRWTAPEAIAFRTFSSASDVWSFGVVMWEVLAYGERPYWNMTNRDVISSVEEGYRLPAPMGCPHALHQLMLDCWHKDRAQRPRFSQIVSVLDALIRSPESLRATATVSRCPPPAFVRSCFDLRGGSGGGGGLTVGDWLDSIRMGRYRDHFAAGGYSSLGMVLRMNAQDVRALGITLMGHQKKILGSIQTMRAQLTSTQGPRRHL
# UniProt P10635, sequence (whole entry, looked up): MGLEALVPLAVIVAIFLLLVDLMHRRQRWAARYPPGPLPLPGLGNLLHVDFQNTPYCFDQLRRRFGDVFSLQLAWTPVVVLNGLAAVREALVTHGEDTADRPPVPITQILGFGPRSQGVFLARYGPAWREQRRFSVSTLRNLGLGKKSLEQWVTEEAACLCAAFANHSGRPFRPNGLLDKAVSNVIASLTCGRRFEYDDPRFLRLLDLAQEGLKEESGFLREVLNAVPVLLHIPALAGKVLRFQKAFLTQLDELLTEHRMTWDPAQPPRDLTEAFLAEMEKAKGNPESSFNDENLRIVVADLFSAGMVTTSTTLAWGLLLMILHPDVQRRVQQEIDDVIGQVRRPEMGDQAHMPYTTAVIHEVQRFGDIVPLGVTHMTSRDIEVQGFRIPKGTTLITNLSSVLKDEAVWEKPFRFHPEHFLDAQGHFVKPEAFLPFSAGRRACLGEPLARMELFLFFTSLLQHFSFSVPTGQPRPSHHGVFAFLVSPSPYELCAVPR
Compound,target or system,test,test system,conditions,scale,quantity,result
Nc1nc(-c2ccc(Cl)cc2)nc2[nH]nc(Nc3ccc(F)cc3)c12,HeLa Ohio,,,72 h,,CC50,> 141 µM
Nc1ncc(-c2cc(-c3cnn(CC(F)(F)F)c3)ncc2F)nc1C(=O)NC1CNCC(F)C1 (stereo not drawn),CSNK2A2,KINOMEscan,,1 µM,reference: DMSO control,remaining binding,59%
OC(Cc1cc(-c2ccc(C(O)C(F)(F)F)s2)sc1-c1ccc(-c2sc(-c3ccc(C(O)C(F)(F)F)s3)cc2CC(O)C(F)(F)F)s1)C(F)(F)F (stereo not drawn),primary human fetal neurons,LC-MS/MS,,"4 µM, 30 min, replicate 3",,amount in cell extract,0.02 nmol and 0.01 nmol
Cc1ncsc1-c1ccc(C(C)NC(=O)C2CC(O)CN2C(=O)C(NC(=O)CCCCCCCCCCN2CCCC(Nc3ncc(Cl)c(Nc4ccccc4S(=O)(=O)C(C)C)n3)C2)C(C)(C)C)cc1 (stereo not drawn),22Rv1,"RNA-seq, refers to: SPRY1 mRNA",,concentration not given,reference: DMSO,log2 fold change,-1.29
Nc1nc(-c2ccccc2)nc2[nH]nc(Nc3ccc([N+](=O)[O-])cc3)c12,HeLa Ohio,,,72 h,,CC50,> 144 µM
C=CC(=O)Nc1cccc(Cn2ncc3cnc(Nc4cnn(CCOC)c4)nc32)c1,human KIT,KINOMEscan,,100 nM,,binding,29%
O=C([O-])CN1CCN(CC(=O)[O-])CCN(Cc2cccc(C(=O)[O-])n2)CC1.[177Lu+3],,,"mouse, blood","intravenous, 1 h",,tracer uptake,0.47 %ID/g
CNC(=O)C1CCCN(C(=O)C2CC3CCC2N3C(=O)[C@@H]2C[C@@H](O)CN2C(=O)NCc2cccc(Cl)c2F)C1 (mixture of isomers),"Cytochrome P450 2D6 (CYP2D6, Homo sapiens, UniProt P10635)","enzyme activity, inhibitor, time-dependent inhibition",,"0.617 µM, preincubated without NADPH",reference: negative control,remaining activity,104%
O=C(Nc1cnccc1-c1ccc([18F])nc1)c1ccnc(NC(=O)C2CC2)c1,,,"mice, transgenic, GSK-3β, early-stage, blood","intravenous, dose not given, 120 min, together with: tariquidar 15 mg/kg i.v. pre-dose",,SUV,0.155
CC(C)OCCOCc1ccc(OCC(O)CN(N=O)C(C)C)cc1 (stereo not drawn),Escherichia coli,Ames test,WP2 uvrA,"5 µg/plate, 30 % rat S9",reference: solvent control,revertant fold increase,0.9 fold
COC1CN([C@H]2CC[C@H]([C@@]3(C)Oc4c(Cl)cc(C(=O)NCc5c(SC)cc(C)[nH]c5=O)c(C)c4O3)CC2)C1,,"RNA-seq, refers to: PCDH17 mouse homolog","mouse, HT-1376 xenograft, whole blood",dose not given,reference: vehicle,log2 fold change,1.65
CCN(CC)CC#CCNc1ccnc2cc(Cl)ccc12,Salmonella typhimurium,mini-Ames test,TA100,"250.0 µg/well, with rat liver S9",,revertants,23 revertants/well and 19 revertants/well
CN(Cc1ccccc1)C(=O)CN1CCN(CC(=O)[O-])CCN(Cc2cccc(C(=O)[O-])n2)CC1.[177Lu+3],,,"mouse, bone","intravenous, 1 h",,tracer uptake,0.43 %ID/g
Nc1nc(-c2cccc(C(F)(F)F)c2)nc2[nH]nc(Nc3ccccc3)c12,HeLa Ohio,,,72 h,,CC50,13.2 µM
Cc1nn(-c2cccc(N)c2)c(=O)c2cnc(Nc3ccc(N4CCNCC4)cc3)nc12,"EPHA8 (Homo sapiens, UniProt P29322)","kinase activity, inhibitor, SelectScreen kinase profiling",,,,IC50,> 10 µM

# Some of these lines once more:
Compound,target or system,test,test system,conditions,scale,quantity,result
O=C([O-])CN1CCN(CC(=O)[O-])CCN(Cc2cccc(C(=O)[O-])n2)CC1.[177Lu+3],,,"mouse, blood","intravenous, 1 h",,tracer uptake,0.47 %ID/g
C=CC(=O)Nc1cccc(Cn2ncc3cnc(Nc4cnn(CCOC)c4)nc32)c1,human KIT,KINOMEscan,,100 nM,,binding,29%
